Experimental data collected from several papers.
Each numbered part is a random draw from the data of one study; scales do not carry over between parts. Positions count from the first letter of the parent shown.

Series 1
Target: Phosphate system positive regulatory protein PHO4, full length, GST-tagged (PHO4, Saccharomyces cerevisiae, UniProt P07270, residues 1-312)
Method: competition protein-binding microarray
Molecule type: double-stranded DNA, one strand shown
Matrix: in vitro
Concentration: 2 µM
Notes: whole 60-bp probe, lowest competitor level
Together with: Cbf1 competitor, 0.05 µM
Direction: higher = stronger binding
All sequences stand within: … GTCTTGATTCGCTTGACGCTGCTG
Target sequence (chain): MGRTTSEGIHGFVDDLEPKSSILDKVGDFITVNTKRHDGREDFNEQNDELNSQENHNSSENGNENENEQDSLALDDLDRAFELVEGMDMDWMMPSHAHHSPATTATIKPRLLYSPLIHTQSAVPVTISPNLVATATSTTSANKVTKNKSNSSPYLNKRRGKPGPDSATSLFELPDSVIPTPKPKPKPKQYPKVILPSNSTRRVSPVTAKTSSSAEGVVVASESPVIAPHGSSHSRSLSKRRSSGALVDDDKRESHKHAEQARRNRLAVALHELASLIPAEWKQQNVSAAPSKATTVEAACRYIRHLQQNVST
Sequence	fluorescence intensity [a.u.]
ATTCAACTTTGCTTCCACGTTAGTAGACAGTGGACC	7050
CTTTCCCGATCTTGTTCTGTGGGTGTAGCACATTTG	4820
TTATTTTATCAGAGCACCGTGGTCGACATCCAACGG	7680
GTAGTTATGGAAGTGCCCGTGGACCATGCCTTCTTT	6840
TGCGCAACAACTTGCGGTGTGGGTGTATGTCTAGAA	5580
CGGGGTTAAGTTTGTCTAGTGGGTGGCTTGCAGCAG	4910
CGGGGTTAAGTTTGAGAGGTGGGTGGCTTGCAGCAG	4460
AGCAACCAAAGTACCCACGTGATTGTCTCCTGCCAA	16600
GGATGGGACACCAACAACGTGCAAAACACCGAAGTG	14200
CTAACGAAGGTTTGTTTAGTGGGTGACAAGCCAAGT	3680
AATCCGCGTAGCCATCACGTCGCGCAATGTGCGATA	6470
CCGAGACATCTTAGTCAGCTGAGACAAGAAAGGCAA	2100
AACCTCGGGGCTTGGGGCGTGGGACATCGAAAGGGG	10100
CACTGTTGGTTCGACACCGTGGGTAAAGATGACAGT	10000
AATCTCAGGTTTCGTCACGTTCTGGTGATGACTGTA	12200
TATGTATGCCTATTTCACATGTTACTAACTGAAGAC	7270
TTGTCGGCATAACCGCACATGGACGTCTATATGACC	9200
CAAGTGTTGTTGGTGCTCGTGGTAATGCAGCGACTT	9760
CCTATGTATTACCATCACGTGGGTAGGGAAGACTAC	19700
CCTCCTCTTTTTTTTCACGTGCTTTGCTGATGTAAG	15100
GGAGGCTTTGCGTCCCACGTGAGGCTTCATGAACAA	15100
AAATTACTAAGTTTTCACGTGCTGTACCCCGTATGA	15800
GTCTTGTCTCATTGGCGCGTGGGTGTCCCCACTTCA	10100
CTAACGAAGGTTTGCCATGTGGGTGACAAGCCAAGT	10000
TATGCTGTGTTTGACCAGGCGAACAACATTGAGAGA	3540

Series 2
Target: ABI1, truncated, D143A, DHFR fusion (Arabidopsis thaliana)
Method: DHFR PCA, deep sequencing
Matrix: yeast
Notes: methotrexate growth selection, single substitutions
Together with: (+)-ABA 0.39 µM
Baseline: wild-type fitted maximum
Direction: higher = stronger binding
Starting sequence: PYL1, truncated, DHFR fusion (Arabidopsis thaliana); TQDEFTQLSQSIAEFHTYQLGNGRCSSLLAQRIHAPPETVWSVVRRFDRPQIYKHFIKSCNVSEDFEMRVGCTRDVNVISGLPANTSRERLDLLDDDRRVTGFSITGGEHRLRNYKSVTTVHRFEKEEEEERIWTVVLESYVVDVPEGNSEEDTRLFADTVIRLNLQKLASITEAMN; partner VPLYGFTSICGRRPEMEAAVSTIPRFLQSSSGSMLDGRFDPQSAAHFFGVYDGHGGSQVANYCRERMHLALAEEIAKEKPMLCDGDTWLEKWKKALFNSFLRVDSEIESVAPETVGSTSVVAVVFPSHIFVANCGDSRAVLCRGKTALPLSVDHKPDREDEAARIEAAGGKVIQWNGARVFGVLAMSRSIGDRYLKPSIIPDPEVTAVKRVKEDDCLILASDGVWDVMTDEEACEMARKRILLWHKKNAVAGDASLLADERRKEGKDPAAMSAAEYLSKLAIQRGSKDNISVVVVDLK
Variant	relative binding score [%]
S80G	3.49
L138R	-1.77
L20V	64.3
V161D	-3.85
K58G	-0.624
G81P	28.1
V44H	-10.3
A84F	84.5
L20T	62.6
S87M	32
A35H	-10.8
E129K	38.1
D159W	-13.1
R45G	-2.84
W134M	60.6
A35F	3.07
R163L	1.51
A35S	8.21
R123D	22.2
F5R	23.8

Series 3
Target: Max-binding protein MNT, bHLH-zipper, MAX partner unstated (MNT, Homo sapiens, UniProt Q99583, residues 220-300)
Method: protein-binding microarray
Molecule type: double-stranded DNA, one strand shown
Matrix: in vitro
Concentration: not given
Notes: k-mer, scored over probes, only values ≥0.25
Direction: higher = stronger binding
Residues (chain): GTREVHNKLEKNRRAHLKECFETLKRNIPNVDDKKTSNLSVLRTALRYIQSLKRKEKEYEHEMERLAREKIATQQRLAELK
Sequence	E-score
AGCATGAG	0.353
CGTGTATC	0.375
ACGCGCAC	0.354
GGGGAGCA	0.281
ATGGCCAC	0.274
AACGTGTC	0.398
ATGCGCTC	0.273
CACGAGTA	0.395
ACACACGT	0.415
CTCACCCC	0.261
GGTGACAC	0.255
ACGCCCTC	0.277
GCGTGCCC	0.344
CCGTGTGC	0.251
GTGCGCCA	0.263
CAACGTGA	0.421
ACACATGT	0.467
AAGACATG	0.287
CATGCAGG	0.335
ACACGAGG	0.469
ACGTGCGG	0.418
ATCACGCG	0.421
ACATGGCA	0.376
CCAACCAC	0.273
CACCATGC	0.393

Series 4
Target: RING finger protein unkempt homolog, zinc fingers 1-6, GST-SBP tag (UNK, Homo sapiens, UniProt Q9C0B0, residues 30-357)
Sequence of UniProt Q9C0B0 (30-357, looked up): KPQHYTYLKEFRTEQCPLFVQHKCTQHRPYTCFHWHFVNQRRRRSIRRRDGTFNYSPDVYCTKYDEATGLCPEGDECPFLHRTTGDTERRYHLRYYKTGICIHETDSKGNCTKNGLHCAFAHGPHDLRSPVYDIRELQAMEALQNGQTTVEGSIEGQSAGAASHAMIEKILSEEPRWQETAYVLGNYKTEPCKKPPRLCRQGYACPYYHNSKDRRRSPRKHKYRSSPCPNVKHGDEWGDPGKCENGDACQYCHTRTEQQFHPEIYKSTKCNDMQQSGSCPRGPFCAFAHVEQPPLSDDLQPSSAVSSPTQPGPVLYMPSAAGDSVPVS
Method: RNA Bind-n-Seq
Molecule type: RNA
Matrix: in vitro
Concentration: not given
Notes: RNA with constant flanks, ends assumed
Baseline: input RNA pool
Direction: higher = stronger binding
All sequences stand within: GGGAGUUCUACAGUCCGACGAUC … CAACAGAGGAUUGAGCAUCA
Sequence	bound/input enrichment [ratio]
UCUUUAUUCCUUCCUUUUCCUUUUUUUCUUUUUUUUUUCUUUUUUUUUUUUUUUUUUUGGCCGUUGUUGUUACCCACGCCAUUUUACGUCUCCUUCACUGAAGGGCUAGAGUUUUAACUU	6.49
GUACUUGCUGUAGGAUACAAGCUGUCUUUGCACUAGCUCUAAAGAAGAAUUUCUUCUGGUUUCCGAGAACUGAUUUUGUUUUAGCAUUAAACUGUUCAAGUUUUUGUACGUAGAUAUCUA	0.666
AAGUGUCUUUUCAUUCAGGGAAAACUGUUGUUUGCCGAGCCCAAGGAUGCGGGCUUUCCAUUCCGCCAGGAUAUCAAUAGCCAUUUGGCCAGCCUCUCAAUGGCUAGAAACACGAGCCCC	0.154
CUGCAUCUUCACUACACAGUGAGCAUCACCAGUUUUAUCCCACGUUUUAACUUUCUAAGCACCGAUCUGCCAGUGGUUGUGGAGACAUUUGUCAAGUACCUGAUUUCCCUCUCAGGAGCU	0.385
UACAGAAGGAGCACCUCUCAAACCGUGCUUCAGGCUCUGAGAAAAGGAGCACAGGGGAAAUCCGUCUUGCUUUGGAUCCAAGCAAAUGCUGUCGGAGCAAUGAACUGGGACUUUGUGUGC	0.104
UGGCAAGGGUUGUGCAAAUCCACUUGGGGUCACUGUUCCAUAUACAAUAAGAACCCACCUUCCGGAUUUUCUUUUAGAAAAUUGUAUAUGCAGCUGGAUGAAGGCAGCCUCACCUUUAAU	0.414
CAGCACCCCAUCAAACCAGUGGUUCAUCCAACUGCUACCCCAAGCACUGUUCCUUCCCGUCCAUUUACGCUACAGUCUGAUCACCAGCCAAAGAAAUCAUUUGAUGCUAAUGGAGCAUCU	0.376
CCAGGCAUGAAAGUCCAAGUGCGGUAUGGACGAGGGAAAAAUCAAAAAAUGUAUGAAGCCCGUAUAAAAGAUUCUGAUGUCGAAGGUGGAGAGGCCCUUUACUUGGUGCAUUACUGCGGA	0.215
AAAACUUUGCAAGAAGAGAUUGAUGCCUUAGAGUCCAGAGUGGCGUCCAUCCAGCGGGUGUCCGCCGACCUGAAGGUGCAGCUAUACGCGAAAUUUGGCAGCAACAUAAACCUCGAGGCA	0.128
CAGGGCCAAAACUGGAACCAAGGAUUUAAUAACUAUUAUGAUCAAGGAUAUGGAAAUUACAACCGUGCCUAUGGUGGUGAUCAAAACUAUAGUGGCUAUGGCGGAUAUGAUUAUACUGGG	0.43
AAGAGCAGAGGAAAUAACUUUACUGCAAAUCAGAACAAUGAUGAUAAUAUUCCAAACACCACCCGUGACUGCAGGCUGGAGAGUGAGGCCCCCUAUUUGUUGAGUCCAGAGGCUGGGCCU	0.208

Series 5
Target: CCND1, cyclin fold, Cln2 fusion (human)
Method: yeast growth competition, sequencing
Matrix: yeast
Notes: weak parent motif
Baseline: not given
Direction: higher = stronger binding
Starting sequence: HIRA docking peptide (human); SLSKRKLELEVET; partner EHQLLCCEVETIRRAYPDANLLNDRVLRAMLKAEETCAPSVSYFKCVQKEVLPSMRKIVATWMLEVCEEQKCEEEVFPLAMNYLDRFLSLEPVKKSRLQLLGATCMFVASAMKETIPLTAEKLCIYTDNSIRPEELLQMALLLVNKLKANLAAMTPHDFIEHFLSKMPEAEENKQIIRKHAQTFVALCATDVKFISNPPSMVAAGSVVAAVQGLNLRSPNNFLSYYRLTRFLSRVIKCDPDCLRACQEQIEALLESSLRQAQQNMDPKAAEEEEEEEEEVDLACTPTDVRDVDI
Variant	normalised enrichment score
S1A	0.516
S3A	0.354
R5K L9F	0.58
L9F	1.01
V11A	-0.113
R5A L7A	0.697
L7A	0.5
E12A	0.758
L2A	0.67
L9A	0.843

Some of these lines once more (series 2):
Variant	relative binding score [%]
L20V	64.3
V161D	-3.85
K58G	-0.624
G81P	28.1
V44H	-10.3
A84F	84.5
L20T	62.6
S87M	32
A35H	-10.8
E129K	38.1
